Assay results of several laboratories.
Every numbered part comes from another study and shows a few of its results, in no order. Positions count from the first letter of the parent shown.
UniProt Q86UX6, sequence (whole entry, looked up): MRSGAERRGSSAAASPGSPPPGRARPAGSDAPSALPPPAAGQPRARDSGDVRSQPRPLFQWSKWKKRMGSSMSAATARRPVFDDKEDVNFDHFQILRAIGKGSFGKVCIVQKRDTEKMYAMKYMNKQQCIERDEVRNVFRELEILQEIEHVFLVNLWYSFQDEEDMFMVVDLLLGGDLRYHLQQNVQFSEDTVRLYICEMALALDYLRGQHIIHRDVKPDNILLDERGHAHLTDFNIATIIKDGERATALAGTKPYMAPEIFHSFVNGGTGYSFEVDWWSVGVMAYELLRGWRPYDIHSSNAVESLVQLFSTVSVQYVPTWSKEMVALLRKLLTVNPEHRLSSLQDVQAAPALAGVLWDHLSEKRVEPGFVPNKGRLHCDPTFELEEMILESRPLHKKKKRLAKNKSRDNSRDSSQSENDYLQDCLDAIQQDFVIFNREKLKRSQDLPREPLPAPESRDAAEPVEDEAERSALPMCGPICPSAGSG
UniProt Q8TDX7, sequence (whole entry, looked up): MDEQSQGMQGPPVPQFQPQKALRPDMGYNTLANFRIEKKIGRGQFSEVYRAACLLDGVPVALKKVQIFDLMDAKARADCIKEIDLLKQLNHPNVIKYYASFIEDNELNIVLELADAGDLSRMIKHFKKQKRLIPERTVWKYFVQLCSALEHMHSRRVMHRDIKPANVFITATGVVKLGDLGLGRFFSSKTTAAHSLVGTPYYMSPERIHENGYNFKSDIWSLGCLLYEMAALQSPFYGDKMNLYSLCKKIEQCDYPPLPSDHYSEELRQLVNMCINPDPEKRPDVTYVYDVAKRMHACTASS
UniProt P00519, sequence (whole entry, looked up): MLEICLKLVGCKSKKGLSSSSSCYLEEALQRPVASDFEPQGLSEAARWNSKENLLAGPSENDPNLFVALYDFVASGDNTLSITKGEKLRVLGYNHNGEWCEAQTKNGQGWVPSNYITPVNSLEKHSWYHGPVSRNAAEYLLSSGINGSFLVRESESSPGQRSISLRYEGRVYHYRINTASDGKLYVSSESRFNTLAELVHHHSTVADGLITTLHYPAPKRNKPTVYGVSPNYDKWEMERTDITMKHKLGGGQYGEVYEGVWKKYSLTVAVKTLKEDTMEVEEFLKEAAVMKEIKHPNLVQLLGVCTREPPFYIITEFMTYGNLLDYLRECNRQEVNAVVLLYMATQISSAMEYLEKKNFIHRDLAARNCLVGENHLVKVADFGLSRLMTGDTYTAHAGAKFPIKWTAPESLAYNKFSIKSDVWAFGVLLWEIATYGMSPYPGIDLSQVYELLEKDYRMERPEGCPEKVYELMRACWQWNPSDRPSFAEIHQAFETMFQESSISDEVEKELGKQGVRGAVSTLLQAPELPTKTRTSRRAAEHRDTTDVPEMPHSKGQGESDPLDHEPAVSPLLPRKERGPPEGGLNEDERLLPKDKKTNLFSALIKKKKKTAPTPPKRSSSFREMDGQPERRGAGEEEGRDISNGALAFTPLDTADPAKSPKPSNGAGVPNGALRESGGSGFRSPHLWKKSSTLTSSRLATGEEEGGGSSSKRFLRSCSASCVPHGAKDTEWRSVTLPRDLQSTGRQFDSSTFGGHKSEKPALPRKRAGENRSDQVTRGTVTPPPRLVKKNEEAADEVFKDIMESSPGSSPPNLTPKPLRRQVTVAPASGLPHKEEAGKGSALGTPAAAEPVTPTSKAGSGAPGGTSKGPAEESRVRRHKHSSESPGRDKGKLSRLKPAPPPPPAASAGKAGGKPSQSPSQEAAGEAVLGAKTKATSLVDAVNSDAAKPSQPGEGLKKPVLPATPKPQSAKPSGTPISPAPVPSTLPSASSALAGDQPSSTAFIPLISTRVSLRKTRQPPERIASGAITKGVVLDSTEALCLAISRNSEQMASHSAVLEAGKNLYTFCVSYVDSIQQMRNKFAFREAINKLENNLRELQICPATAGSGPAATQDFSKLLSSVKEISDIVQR

Set 1
Structure (SMILES): Cn1nc(C(=O)NCc2ccc(C(=O)O)cc2)cc1-c1ccc2[nH]ccc2c1
Observed: cell-free assay
Technique: competition with immobilised ligand
Concentration: 0.1 µM
target	remaining binding [%]
NEK7 (Homo sapiens, UniProt Q8TDX7)	98
Tyrosine-protein kinase ABL1, phosphorylated (ABL1, Homo sapiens, UniProt P00519)	62
Receptor-type tyrosine-protein kinase FLT3, autoinhibited (FLT3, Homo sapiens, UniProt P36888)	95
STK32C (Homo sapiens, UniProt Q86UX6)	100
FLT3 (Homo sapiens, UniProt P36888, D835V/ITD)	99

Set 2
Target: Myc proto-oncogene protein, bHLH-zipper, MAX partner unstated (MYC, Homo sapiens, UniProt P01106, residues 368-449)
UniProt P01106, sequence (368-449, looked up): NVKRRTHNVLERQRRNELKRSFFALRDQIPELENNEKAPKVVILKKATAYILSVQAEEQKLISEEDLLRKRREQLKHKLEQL
Technique: protein-binding microarray
Molecule type: double-stranded DNA, one strand shown
Matrix: in vitro
Concentration: not given
Notes: k-mer, scored over probes, only values ≥0.25
Reading: higher = stronger binding
Oligonucleotide	E-score
CTGCATGC	0.374
CGTGCTGC	0.362
ATTGCACG	0.329
CGTGGGGA	0.299
CATGATGC	0.308
ACGCGCAT	0.332
CAATGTGC	0.337
CGCGACAC	0.26

Set 3
Target: Mitogen-activated protein kinase 14 (MAPK14, Homo sapiens, UniProt Q16539)
UniProt Q16539, sequence (whole entry, looked up): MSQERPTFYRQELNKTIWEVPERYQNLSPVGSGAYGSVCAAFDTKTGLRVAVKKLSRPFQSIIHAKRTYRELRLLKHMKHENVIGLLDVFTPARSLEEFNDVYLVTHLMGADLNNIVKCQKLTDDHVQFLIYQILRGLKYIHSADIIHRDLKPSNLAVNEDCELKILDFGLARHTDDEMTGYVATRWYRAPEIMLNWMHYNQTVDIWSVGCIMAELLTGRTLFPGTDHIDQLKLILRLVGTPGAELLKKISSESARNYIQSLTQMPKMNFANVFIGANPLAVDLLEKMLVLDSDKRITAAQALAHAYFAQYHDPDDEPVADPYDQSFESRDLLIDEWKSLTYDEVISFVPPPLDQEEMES
Observed: enzyme activity
Mode: inhibitor
Concentration: 0.5 µM
Relative to: control
Compound	remaining activity
O=C1NC(=O)C(c2cn(CCCO)c3ncccc23)=C1c1cnccn1	107%
O=C(Nc1cccc(Nc2cc(Nc3cccc(C(F)(F)F)c3)ncn2)c1)C1CC1	98.2%
Cn1sc(=O)n(Cc2ccccc2)c1=O	101%
Cn1c2ccccc2c2c3c(c4c5ccccc5n(CCC#N)c4c21)CNC3=O	93.5%
COc1ccc(CNC(=O)Nc2ncc([N+](=O)[O-])s2)cc1	104%
CNC(=O)c1cc(Oc2ccc(NC(=O)Nc3ccc(Cl)c(C(F)(F)F)c3)cc2)ccn1	40.2%
Cc1cccc(-c2[nH]c(C(C)(C)C)nc2-c2ccc3c(c2)OCO3)n1	89.7%
Cc1ccc(NC(=O)c2ccc(CN3CCN(C)CC3)cc2)cc1Nc1nc(-c2cccnc2)cs1	98.1%
COc1ccc(OC)c2c(=S)c3ccccc3[nH]c12	104%
COc1cc2nccc(Oc3ccc(NC(=S)NC(=O)c4ccccc4C)cc3)c2cc1OC	80.2%
O=C1NC(=O)C(c2cn(CCCn3ccnc3)c3ccccc23)=C1Nc1ccccc1	88.3%
Cc1ccc(Nc2nccc(N(C)c3ccc4c(C)n(C)nc4c3)n2)cc1S(N)(=O)=O	91.2%
O=C(CCCc1ccc(-c2ccccc2F)cc1)Nc1ccc(O)cc1	89%

Set 4
Target: ABI1, truncated, D143A, DHFR fusion (Arabidopsis thaliana, UniProt P49597)
Technique: DHFR PCA, dose-response
Matrix: yeast
Notes: Hill fit, not affinity, not high confidence
Added: (+)-ABA, dose series
Reading: lower = more sensitive
Starting sequence: PYL1, truncated, DHFR fusion (Arabidopsis thaliana, UniProt Q8VZS8); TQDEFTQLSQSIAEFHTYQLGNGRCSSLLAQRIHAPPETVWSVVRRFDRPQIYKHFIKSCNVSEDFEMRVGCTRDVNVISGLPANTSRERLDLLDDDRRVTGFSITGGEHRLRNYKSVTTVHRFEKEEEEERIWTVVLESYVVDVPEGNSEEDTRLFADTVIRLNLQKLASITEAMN
Substitution	ABA EC50
R90D	721 µM
Y115S	4.38 µM
W41V	62.2 µM
V44H	0.388 µM
V76E	151 µM
N149C	212 µM
V137D	0.673 µM
S140Y	304 µM

A few entries again (set 4):
Substitution	ABA EC50
R90D	721 µM
Y115S	4.38 µM
W41V	62.2 µM
V44H	0.388 µM
V76E	151 µM
N149C	212 µM
